Experimental data of several laboratories.
Each numbered part is a random draw from the data of one study; scales do not carry over between parts.
UniProt Q13237, sequence (whole entry, looked up): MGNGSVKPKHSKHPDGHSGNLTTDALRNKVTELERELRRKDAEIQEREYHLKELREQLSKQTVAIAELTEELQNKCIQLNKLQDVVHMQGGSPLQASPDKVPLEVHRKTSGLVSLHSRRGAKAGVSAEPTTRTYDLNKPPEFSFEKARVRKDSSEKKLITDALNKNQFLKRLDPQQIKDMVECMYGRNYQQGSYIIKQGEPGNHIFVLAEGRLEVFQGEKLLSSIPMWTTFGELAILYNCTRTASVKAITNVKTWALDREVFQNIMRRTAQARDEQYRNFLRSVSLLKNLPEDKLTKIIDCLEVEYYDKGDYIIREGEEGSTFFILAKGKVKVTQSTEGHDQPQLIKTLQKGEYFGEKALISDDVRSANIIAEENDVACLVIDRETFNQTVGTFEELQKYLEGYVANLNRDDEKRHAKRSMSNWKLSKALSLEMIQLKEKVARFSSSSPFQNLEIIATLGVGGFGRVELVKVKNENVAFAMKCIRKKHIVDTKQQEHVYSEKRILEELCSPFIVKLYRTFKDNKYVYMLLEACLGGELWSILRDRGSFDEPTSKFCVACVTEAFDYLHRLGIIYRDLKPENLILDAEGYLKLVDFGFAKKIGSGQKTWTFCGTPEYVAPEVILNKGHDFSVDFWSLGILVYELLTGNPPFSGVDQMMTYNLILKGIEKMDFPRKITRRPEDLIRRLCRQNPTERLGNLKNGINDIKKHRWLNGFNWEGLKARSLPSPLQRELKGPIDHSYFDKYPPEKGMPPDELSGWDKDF
UniProt O75676, sequence (whole entry, looked up): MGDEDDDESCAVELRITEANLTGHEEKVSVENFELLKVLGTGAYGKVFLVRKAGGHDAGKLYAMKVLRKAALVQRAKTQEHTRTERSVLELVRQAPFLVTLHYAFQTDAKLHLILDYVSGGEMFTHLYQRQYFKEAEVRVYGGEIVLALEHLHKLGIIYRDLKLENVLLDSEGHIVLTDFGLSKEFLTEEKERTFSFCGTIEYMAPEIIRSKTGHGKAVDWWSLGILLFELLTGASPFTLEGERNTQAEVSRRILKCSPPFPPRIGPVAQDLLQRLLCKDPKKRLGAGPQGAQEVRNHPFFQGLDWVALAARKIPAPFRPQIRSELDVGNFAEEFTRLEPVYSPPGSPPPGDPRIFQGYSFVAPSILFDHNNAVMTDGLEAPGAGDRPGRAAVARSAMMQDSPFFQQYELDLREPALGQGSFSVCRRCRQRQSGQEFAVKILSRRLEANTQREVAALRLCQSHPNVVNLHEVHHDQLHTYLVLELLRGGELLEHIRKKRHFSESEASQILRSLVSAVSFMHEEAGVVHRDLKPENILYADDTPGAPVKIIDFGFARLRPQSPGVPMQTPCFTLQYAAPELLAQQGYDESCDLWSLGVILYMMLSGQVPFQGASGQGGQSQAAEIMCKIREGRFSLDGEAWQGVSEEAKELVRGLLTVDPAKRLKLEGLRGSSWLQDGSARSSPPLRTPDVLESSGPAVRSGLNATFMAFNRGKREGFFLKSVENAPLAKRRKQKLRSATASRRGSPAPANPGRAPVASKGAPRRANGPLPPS
UniProt O94804, sequence (whole entry, looked up): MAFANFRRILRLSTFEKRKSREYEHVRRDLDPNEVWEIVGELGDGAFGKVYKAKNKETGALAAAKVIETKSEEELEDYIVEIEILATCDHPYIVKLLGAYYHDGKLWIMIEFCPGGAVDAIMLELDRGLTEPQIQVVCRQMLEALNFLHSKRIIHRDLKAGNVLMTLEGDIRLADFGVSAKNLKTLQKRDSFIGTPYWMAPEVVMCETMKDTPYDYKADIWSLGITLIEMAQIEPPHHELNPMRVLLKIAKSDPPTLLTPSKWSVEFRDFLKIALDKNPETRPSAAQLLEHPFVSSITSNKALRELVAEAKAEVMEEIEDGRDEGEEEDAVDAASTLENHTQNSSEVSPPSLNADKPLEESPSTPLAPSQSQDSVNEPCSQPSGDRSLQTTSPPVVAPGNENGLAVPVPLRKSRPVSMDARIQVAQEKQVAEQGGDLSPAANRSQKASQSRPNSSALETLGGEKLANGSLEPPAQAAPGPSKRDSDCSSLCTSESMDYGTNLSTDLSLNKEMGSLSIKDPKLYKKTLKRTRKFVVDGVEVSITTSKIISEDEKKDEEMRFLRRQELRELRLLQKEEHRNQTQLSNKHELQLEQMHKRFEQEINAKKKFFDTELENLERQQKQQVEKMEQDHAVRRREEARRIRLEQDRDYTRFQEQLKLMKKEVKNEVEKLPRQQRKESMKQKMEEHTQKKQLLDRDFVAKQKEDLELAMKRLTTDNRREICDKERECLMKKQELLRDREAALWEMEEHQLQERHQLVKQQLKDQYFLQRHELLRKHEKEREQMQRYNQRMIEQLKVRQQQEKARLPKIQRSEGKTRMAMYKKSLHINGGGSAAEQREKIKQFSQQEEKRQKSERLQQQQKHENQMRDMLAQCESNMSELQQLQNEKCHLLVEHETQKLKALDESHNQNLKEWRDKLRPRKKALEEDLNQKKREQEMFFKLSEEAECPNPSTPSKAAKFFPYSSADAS
UniProt O75914, sequence (whole entry, looked up): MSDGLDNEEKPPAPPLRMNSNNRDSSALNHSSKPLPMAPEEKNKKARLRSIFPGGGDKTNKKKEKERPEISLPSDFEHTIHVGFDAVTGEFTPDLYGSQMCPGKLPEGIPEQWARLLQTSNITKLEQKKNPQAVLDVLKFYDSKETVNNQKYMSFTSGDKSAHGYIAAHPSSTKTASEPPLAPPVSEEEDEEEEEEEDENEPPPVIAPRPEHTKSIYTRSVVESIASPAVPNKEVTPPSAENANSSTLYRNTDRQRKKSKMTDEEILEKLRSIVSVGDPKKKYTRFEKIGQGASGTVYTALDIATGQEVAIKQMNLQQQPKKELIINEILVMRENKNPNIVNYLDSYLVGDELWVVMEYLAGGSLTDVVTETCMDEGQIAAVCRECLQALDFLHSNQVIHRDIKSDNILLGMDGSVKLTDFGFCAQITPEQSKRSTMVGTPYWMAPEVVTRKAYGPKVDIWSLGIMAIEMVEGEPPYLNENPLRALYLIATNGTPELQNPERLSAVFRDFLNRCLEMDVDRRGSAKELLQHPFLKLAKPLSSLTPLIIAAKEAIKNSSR
UniProt Q9UKI8, sequence (whole entry, looked up): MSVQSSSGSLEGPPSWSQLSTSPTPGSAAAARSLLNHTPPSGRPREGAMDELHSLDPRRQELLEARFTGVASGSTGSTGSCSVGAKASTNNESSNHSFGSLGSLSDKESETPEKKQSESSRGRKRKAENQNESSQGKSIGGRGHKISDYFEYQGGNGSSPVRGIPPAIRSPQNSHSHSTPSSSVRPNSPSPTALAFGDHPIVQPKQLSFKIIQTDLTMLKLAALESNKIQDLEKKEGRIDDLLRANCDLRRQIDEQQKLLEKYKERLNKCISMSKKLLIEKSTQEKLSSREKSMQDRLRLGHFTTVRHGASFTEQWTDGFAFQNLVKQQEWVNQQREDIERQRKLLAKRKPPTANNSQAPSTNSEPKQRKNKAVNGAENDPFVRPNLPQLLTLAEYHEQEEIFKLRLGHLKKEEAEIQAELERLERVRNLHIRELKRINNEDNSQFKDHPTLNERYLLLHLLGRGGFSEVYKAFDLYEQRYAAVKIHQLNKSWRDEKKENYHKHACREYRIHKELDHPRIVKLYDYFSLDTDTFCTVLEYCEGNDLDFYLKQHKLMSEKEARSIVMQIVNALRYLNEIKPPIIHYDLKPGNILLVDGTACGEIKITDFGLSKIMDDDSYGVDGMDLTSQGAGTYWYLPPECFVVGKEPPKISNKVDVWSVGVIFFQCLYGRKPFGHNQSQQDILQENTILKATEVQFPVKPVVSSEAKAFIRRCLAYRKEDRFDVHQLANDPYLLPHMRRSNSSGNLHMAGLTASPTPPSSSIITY
UniProt Q6P2M8, sequence (whole entry, looked up): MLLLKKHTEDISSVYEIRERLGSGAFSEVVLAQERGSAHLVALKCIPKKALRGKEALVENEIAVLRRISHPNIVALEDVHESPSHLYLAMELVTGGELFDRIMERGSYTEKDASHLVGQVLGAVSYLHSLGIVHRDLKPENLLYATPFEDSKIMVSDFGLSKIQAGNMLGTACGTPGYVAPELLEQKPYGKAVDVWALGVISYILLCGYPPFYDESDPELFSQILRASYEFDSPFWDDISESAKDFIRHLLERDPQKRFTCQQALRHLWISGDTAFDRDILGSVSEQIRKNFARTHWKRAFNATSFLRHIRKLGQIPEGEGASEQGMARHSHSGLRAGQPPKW

Series 1 — effect on: enzyme activity; action: inhibitor; tested at: 10 µM
Target: Calcium/calmodulin-dependent protein kinase type II subunit alpha (CAMK2A, Homo sapiens, UniProt Q9UQM7)
UniProt Q9UQM7, sequence (whole entry, looked up): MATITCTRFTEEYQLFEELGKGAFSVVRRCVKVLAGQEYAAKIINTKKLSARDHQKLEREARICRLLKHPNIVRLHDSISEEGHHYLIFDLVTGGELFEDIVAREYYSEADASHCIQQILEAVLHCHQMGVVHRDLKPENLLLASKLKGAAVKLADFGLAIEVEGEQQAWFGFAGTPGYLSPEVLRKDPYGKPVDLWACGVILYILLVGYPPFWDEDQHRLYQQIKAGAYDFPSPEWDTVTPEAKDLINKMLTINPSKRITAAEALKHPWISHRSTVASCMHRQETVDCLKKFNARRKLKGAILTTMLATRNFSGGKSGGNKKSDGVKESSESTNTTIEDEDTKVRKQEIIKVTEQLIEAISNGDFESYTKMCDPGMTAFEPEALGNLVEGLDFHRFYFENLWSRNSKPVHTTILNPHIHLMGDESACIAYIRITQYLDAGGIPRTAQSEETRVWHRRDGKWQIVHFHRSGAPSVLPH
For `O=C(O)CNC(=O)c1cccc(O)c1`, the inhibition was 10%.
For `O=C(O)CCCCc1ccccc1`, the inhibition was 35%.
For `COc1cc(C(=O)O)ccc1O`, the inhibition was -90%.
For `CC(C)CCC1(O)O[C@H]2[C@H](O)[C@H]3[C@@H]4CC[C@@H]5C[C@@H](O[C@@H]6O[C@H](CO)[C@H](O)[C@H](O)[C@H]6O[C@@H]6O[C@H](CO)[C@@H](O)[C@H](O)[C@H]6O)CC[C@]5(C)[C@H]4CC[C@]3(C)[C@H]2[C@@H]1C` (some centres unmarked), the inhibition was -33%.
`CC1(C)O[C@@H]2C[C@H]3[C@@H]4C[C@H](F)C5=CC(=O)C=C[C@]5(C)[C@H]4[C@@H](O)C[C@]3(C)[C@]2(C(=O)CO)O1` gave an inhibition of -5%.
For `CC(=O)N[C@@H](Cc1ccc(O)cc1)C(=O)O`, the inhibition was 17%.
With `COc1cc(CNC(=O)CCCCCCCC(C)C)ccc1O` the inhibition was -26%.
The inhibition of `CCC1=C[C@@H]2CN(C1)Cc1c([nH]c3ccccc13)[C@@](C(=O)OC)(c1cc3c(cc1OC)N(C)[C@H]1[C@@](O)(C(=O)OC)[C@H](OC(C)=O)[C@]4(CC)C=CCN5CC[C@]31[C@@H]54)C2` is reported as 23%.
With `Cn1ccnc1S` the inhibition was 2%.
For `C[C@H]1C[C@@H]2[C@H]([C@@H](O)C[C@@]3(C)[C@H]2CC[C@]3(O)C(=O)CO)[C@@]2(C)C=CC(=O)C=C12`, the inhibition was -6%.

Series 2 — Structure (SMILES): COc1ccc(-c2cnc3c(-c4ccsc4)cnn3c2)cc1; effect on: enzyme activity; action: inhibitor; tested at: 0.5 µM; baseline: control
The remaining activity was 98.4% (CAMK4 (Homo sapiens, UniProt Q16566)).
The remaining activity was 92% (PRKG2 (Homo sapiens, UniProt Q13237)).
DCLK2 (Homo sapiens, UniProt Q8N568) — remaining activity: 97.5%.
CLK4 (Homo sapiens, UniProt Q9HAZ1) — remaining activity: 62%.
For MARK4 (Homo sapiens, UniProt Q96L34): remaining activity read 92.7%.
For TLK2 (Homo sapiens, UniProt Q86UE8): remaining activity read 96.2%.
For CDC42BPB (Homo sapiens, UniProt Q9Y5S2): remaining activity read 83.4%.
DDR2 (Homo sapiens, UniProt Q16832) — remaining activity: 98.2%.
PLK3 (Homo sapiens, UniProt Q9H4B4) — remaining activity: 98%.
PAK3 (Homo sapiens, UniProt O75914) — remaining activity: 96.4%.
RPS6KA4 (Homo sapiens, UniProt O75676) — remaining activity: 98.7%.
It gave 100% for remaining activity (CLK3 (Homo sapiens, UniProt P49761)).
It gave 93.3% for remaining activity (AKT2 (Homo sapiens, UniProt P31751)).
It gave 90.9% for remaining activity (PNCK (Homo sapiens, UniProt Q6P2M8)).

Series 3 — cell line: HaCaT; tested at: 100 µM; time: 18 h
`CCCc1cc(=O)[nH]c(=S)[nH]1` has a viability of 99.2%.
`O=C(/C=C/c1ccc(O)c2c1[C@H](C(=O)O[C@H](Cc1ccc(O)c(O)c1)C(=O)O)[C@@H](c1ccc(O)c(O)c1)O2)O[C@H](Cc1ccc(O)c(O)c1)C(=O)O` has a viability of 149%.
For `Cc1cc(O)cc(C)c1Cl`, the viability was 87.1%.
For `C[C@@H](O)[C@H]1C(=O)N2C(C(=O)O)=C(SCCN=CN)C[C@H]12`, the viability was 115%.
`O=C(/C=C/c1cccc(S(=O)(=O)Nc2ccccc2)c1)NO` gave a viability of 17.7%.
`Cc1ccc(NC(=O)c2ccc(CN3CCN(C)CC3)cc2)cc1Nc1nc(-c2cccnc2)cs1` has a viability of 17.7%.
`Cc1ccc(C(=O)c2ccc(CC(=O)O)n2C)cc1` has a viability of 95.6%.
The viability of `C=CC(=O)Nc1cccc(Nc2nc(Nc3ccc(N4CCN(C(C)=O)CC4)cc3OC)ncc2C(F)(F)F)c1` is reported as 20%.
`C[C@@H]1O[C@@H](O[C@H]2[C@H](Oc3cc(O)c4c(c3)O[C@H](c3ccc(O)cc3)CC4=O)O[C@H](CO)[C@@H](O)[C@@H]2O)[C@H](O)[C@H](O)[C@H]1O` gave a viability of 98.9%.

Series 4 — effect on: cell-free assay; method: competition with immobilised ligand; tested at: 0.1 µM
Structure (SMILES): Nc1c(C(=O)NCc2ccc(C(=O)NCCCC3CCCCC3)cc2)cnn1-c1ccccc1
It gave 96% for remaining binding (EGFR (Homo sapiens, UniProt P00533, L858R/T790M)).
PIM3 (Homo sapiens, UniProt Q86V86) — remaining binding: 91%.
PRKG2 (Homo sapiens, UniProt Q13237) — remaining binding: 96%.
STK10 (Homo sapiens, UniProt O94804) — remaining binding: 100%.
It gave 100% for remaining binding (NEK2 (Homo sapiens, UniProt P51955)).
For CDK13 (Homo sapiens, UniProt Q14004): remaining binding read 79%.
The remaining binding was 100% (LRRK2 (Homo sapiens, UniProt Q5S007, G2019S)).
KIT (Homo sapiens, UniProt P10721, V559D) — remaining binding: 45%.
The remaining binding was 100% (TRPM6 (Homo sapiens, UniProt Q9BX84)).
The remaining binding was 100% (MAPK15 (Homo sapiens, UniProt Q8TD08)).
For BUB1 (Homo sapiens, UniProt O43683): remaining binding read 86%.
The remaining binding was 85% (Ribosomal protein S6 kinase alpha-4, N-terminal kinase domain (RPS6KA4, Homo sapiens, UniProt O75676)).
For TLK1 (Homo sapiens, UniProt Q9UKI8): remaining binding read 77%.
It gave 77% for remaining binding (PIK3CA (Homo sapiens, UniProt P42336, H1047Y)).

A few entries again (series 4):
It gave 100% for remaining binding (NEK2 (Homo sapiens, UniProt P51955)).
For CDK13 (Homo sapiens, UniProt Q14004): remaining binding read 79%.
The remaining binding was 100% (LRRK2 (Homo sapiens, UniProt Q5S007, G2019S)).
KIT (Homo sapiens, UniProt P10721, V559D) — remaining binding: 45%.
The remaining binding was 100% (TRPM6 (Homo sapiens, UniProt Q9BX84)).
The remaining binding was 100% (MAPK15 (Homo sapiens, UniProt Q8TD08)).
For BUB1 (Homo sapiens, UniProt O43683): remaining binding read 86%.
